Experimental data from different studies.
Lines come from different studies, so protocols differ. “And” joins repeats or separate records; there may be more than shown. Numbers after ± are the reported error.
Target: Cytochrome P450 2D6 (CYP2D6, Homo sapiens, UniProt P10635)
Chain of UniProt P10635 (whole entry, looked up): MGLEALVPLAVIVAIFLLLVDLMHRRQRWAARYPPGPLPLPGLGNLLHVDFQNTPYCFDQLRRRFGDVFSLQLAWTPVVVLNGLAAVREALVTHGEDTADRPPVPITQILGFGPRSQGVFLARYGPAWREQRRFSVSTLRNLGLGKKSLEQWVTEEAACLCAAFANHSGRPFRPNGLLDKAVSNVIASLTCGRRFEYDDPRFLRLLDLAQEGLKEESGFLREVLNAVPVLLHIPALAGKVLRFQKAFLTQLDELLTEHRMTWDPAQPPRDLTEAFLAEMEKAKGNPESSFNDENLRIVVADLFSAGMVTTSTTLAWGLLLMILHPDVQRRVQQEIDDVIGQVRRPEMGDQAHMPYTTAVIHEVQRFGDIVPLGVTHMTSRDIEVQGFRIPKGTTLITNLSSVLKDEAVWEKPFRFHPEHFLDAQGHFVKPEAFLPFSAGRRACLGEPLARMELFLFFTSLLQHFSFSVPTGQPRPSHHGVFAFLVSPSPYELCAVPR

CCC1CC2C(C)=CC3C(=O)CCCC3C=CC(C)=CC2C(=O)O1 (stereo not drawn) — remaining activity (human liver microsomes; 10 µM, 10 min, pH 7.4, together with: dextromethorphan 2 µM; reference: untreated): 87.7%
CCc1nc(N)nc(N)c1C#CC(C)c1cc(F)cc(-c2cc(C)nc(C)c2)c1 (racemic) — IC50 (enzyme activity, inhibitor, fluorescence): > 50 µM
CC1CCC2(OC1)OC1CC3C4CC=C5CC(OC6OC(CO)C(OC7OC(CO)C(O)C7O)C(O)C6OC6OC(C)C(O)C(O)C6O)CCC5(C)C4CCC3(C)C1(O)C2C (stereo not drawn) — remaining activity (dextromethorphan O-demethylation; pooled human liver microsomes; 100 µM, 1 h, pH 7.4; reference: vehicle): 33.3%
Brc1ccccc1-c1nnc(CSc2nnnn2-c2ccccc2)o1 — inhibition (fluorescence; insect cell microsomes; 10 µM; negative = possible induction): -21%
CCc1nc(N)nc(N)c1C#C[C@H](C)c1cc(-c2cc(C)nc(C)c2)ccc1Cl — IC50 (enzyme activity, inhibitor, fluorescence): > 50 µM
NC(COc1ccccc1C(F)(F)F)c1ccccc1 (stereo not drawn) — metabolic rate (purified enzyme; 50 µM): 43.6 ± 8.2 nmol/min/mg of protein
CCc1nc(N)nc(N)c1C#CC(C)c1cccc(-c2cc(C)nc(C)c2)c1 (racemic) — IC50 (enzyme activity, inhibitor, fluorescence): 27.4 µM
CCC(=O)N(C)c1ccc(Cl)c(Cl)c1 — half-life (recombinant enzyme Supersomes; 1 µM, together with: NADPH): > 3 h
C[N+]1(CC(=O)OC2CCCCCCCCCCC2)CCCCC1 — IC50 (inhibitor): 1.58 µM
Cc1ccc(OCC(=O)N(Cc2cccs2)c2ccn[nH]2)cc1 — inhibition (enzyme activity, inhibitor, mass spectrometry; human, liver microsomes; 10 µM): 15%
CCc1nc(N)nc(N)c1C#CC(C)c1cc(-c2cc(C)nc(C)c2)ccc1OC(F)(F)F (racemic) — IC50 (enzyme activity, inhibitor, fluorescence): > 50 µM
OC1(C(F)(F)F)CCN(c2nc(Nc3ccnc(C(F)(F)F)c3)nc(-c3cccc(C(F)(F)F)n3)n2)C1 (stereo not drawn) — inhibition (enzyme activity, inhibitor; human liver microsomes; concentration not given): no inhibition
NS(=O)(=O)NCC(F)(F)c1ccccc1F — IC50 (enzyme activity, inhibitor, fluorescence): > 120 µM and > 74 µM
COc1cc(OC)c(F)c(/C=C/c2cnc3ccn(S(=O)(=O)c4cn(CCF)cn4)c3n2)c1F — inhibition (enzyme activity, inhibitor; human, liver microsomes; 10 µM, 20 min, pH 7.4): 9%
O=C(CS(=O)(=O)Cc1ccco1)C12CC3CC(CC(C3)C1)C2 — inhibition (inhibitor; 10 µM): no inhibition
